Assay results gathered from unrelated publications.
Compare with care: the assays were run in different laboratories. Several values in a cell are separate wells, animals, samples, runs or records. ± gives the spread as reported.
DRD4: D(4) dopamine receptor (DRD4, Homo sapiens, UniProt P21917)
Chain of UniProt P21917 (whole entry, looked up): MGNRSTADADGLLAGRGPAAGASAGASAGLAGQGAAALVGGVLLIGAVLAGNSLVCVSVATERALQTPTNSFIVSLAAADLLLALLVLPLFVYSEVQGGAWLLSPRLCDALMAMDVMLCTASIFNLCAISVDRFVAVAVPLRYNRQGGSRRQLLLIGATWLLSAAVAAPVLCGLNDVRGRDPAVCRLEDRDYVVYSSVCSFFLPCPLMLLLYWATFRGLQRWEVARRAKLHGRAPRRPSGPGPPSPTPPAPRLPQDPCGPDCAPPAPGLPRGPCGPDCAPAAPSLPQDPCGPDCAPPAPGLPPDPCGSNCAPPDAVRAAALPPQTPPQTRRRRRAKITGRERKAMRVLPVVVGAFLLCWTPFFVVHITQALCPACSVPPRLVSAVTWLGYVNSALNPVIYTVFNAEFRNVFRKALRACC
SCN5A: Sodium channel protein type 5 subunit alpha (SCN5A, Homo sapiens, UniProt Q14524)
Chain of UniProt Q14524 (whole entry, looked up): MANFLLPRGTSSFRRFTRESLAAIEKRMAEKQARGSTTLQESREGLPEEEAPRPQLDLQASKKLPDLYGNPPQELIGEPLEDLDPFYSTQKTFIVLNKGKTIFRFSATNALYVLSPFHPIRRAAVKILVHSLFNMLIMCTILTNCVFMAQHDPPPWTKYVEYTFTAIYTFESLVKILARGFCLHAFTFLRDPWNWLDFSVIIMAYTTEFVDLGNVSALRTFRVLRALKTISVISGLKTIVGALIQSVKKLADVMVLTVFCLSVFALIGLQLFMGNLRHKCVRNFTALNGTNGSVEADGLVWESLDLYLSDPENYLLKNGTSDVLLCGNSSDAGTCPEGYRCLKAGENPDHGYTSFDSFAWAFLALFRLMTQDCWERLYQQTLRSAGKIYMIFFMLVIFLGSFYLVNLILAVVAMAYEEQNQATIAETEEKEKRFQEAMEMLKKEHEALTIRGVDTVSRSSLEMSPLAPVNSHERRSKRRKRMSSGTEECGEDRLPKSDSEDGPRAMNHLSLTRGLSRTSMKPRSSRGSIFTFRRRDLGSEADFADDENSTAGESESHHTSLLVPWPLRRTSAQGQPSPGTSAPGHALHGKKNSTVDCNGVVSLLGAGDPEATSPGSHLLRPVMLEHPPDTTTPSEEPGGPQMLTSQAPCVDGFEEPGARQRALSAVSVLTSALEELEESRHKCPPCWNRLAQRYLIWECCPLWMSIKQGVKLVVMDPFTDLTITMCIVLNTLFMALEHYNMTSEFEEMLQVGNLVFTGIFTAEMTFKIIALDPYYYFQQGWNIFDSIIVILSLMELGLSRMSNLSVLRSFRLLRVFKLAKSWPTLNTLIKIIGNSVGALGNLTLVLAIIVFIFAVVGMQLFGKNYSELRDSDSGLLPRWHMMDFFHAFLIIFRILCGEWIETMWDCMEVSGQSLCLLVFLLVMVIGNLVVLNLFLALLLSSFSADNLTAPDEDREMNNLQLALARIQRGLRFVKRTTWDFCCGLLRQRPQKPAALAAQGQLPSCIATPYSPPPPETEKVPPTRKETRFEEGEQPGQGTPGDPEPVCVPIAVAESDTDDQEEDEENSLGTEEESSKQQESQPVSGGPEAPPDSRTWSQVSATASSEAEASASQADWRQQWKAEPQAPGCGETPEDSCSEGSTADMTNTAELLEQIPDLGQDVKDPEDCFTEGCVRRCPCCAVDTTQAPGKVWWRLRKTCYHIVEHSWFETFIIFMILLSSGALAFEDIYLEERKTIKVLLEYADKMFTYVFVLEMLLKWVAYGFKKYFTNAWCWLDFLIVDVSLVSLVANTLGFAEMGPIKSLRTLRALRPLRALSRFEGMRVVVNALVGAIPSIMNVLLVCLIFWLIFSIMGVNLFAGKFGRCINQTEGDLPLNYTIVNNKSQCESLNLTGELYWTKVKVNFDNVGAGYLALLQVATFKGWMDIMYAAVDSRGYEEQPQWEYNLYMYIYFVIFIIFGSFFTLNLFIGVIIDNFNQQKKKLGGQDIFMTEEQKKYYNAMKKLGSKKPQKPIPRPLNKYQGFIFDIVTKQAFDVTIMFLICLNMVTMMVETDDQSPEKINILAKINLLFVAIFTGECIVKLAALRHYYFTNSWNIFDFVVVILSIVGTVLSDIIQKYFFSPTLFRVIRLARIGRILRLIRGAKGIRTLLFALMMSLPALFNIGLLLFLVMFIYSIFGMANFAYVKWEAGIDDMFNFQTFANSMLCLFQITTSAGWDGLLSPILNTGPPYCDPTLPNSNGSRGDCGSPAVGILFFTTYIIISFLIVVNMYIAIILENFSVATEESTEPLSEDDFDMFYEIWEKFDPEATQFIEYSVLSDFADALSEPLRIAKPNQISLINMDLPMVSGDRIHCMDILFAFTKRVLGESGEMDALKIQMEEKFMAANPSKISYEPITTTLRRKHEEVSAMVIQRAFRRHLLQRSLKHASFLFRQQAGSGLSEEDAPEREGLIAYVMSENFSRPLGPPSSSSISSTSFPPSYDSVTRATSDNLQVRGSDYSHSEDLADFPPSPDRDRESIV
AMY2: Pancreatic alpha-amylase (AMY2, Sus scrofa, UniProt P00690)
Chain of UniProt P00690 (whole entry, looked up): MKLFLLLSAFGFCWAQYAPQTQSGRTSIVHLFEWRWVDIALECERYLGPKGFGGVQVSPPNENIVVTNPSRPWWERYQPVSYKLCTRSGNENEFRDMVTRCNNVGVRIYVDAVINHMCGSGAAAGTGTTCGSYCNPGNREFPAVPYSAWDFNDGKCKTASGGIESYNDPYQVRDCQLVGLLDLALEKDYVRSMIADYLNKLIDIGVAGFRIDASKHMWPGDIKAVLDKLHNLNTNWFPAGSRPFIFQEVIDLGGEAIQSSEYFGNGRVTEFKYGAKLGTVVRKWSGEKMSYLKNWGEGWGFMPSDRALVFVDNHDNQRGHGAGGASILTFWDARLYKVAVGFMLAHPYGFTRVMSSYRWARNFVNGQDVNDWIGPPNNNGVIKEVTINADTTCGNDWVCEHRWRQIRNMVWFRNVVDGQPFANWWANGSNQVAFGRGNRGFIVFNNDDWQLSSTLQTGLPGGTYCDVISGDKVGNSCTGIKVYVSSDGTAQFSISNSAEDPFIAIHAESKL
HTR2B: 5-hydroxytryptamine receptor 2B (HTR2B, Homo sapiens, UniProt P41595)
HDAC11: Histone deacetylase 11 (HDAC11, Homo sapiens, UniProt Q96DB2)
Chain of UniProt Q96DB2 (whole entry, looked up): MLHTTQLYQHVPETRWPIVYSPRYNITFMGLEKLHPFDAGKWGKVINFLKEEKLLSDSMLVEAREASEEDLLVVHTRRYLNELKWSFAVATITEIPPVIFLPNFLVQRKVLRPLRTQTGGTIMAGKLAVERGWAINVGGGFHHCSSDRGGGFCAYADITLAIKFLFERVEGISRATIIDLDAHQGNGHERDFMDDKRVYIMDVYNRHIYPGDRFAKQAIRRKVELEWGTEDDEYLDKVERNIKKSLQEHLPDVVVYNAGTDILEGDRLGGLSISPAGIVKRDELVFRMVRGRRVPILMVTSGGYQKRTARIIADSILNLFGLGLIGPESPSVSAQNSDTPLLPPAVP
Chain of UniProt Q63959 (whole entry, looked up): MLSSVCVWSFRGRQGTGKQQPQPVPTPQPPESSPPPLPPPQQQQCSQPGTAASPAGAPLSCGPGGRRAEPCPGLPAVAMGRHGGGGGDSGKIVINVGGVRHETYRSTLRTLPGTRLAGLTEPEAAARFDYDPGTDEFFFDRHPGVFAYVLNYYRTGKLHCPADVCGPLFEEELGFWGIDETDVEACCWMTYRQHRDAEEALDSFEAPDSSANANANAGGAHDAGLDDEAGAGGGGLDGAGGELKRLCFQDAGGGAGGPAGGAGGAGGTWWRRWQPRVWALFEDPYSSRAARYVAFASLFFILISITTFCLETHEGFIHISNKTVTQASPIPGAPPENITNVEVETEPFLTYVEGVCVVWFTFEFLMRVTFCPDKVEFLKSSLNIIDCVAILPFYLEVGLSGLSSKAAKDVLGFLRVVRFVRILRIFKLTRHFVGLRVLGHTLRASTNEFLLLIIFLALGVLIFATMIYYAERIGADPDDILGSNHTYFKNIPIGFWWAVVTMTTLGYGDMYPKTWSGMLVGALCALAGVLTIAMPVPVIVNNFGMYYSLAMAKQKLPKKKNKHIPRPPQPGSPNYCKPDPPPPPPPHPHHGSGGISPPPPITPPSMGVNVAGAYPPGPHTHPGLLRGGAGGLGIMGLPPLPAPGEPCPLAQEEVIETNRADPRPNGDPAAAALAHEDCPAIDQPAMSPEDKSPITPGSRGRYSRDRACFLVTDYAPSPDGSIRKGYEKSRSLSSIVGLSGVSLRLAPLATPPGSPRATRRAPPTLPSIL
Chain of UniProt Q96S37 (whole entry, looked up): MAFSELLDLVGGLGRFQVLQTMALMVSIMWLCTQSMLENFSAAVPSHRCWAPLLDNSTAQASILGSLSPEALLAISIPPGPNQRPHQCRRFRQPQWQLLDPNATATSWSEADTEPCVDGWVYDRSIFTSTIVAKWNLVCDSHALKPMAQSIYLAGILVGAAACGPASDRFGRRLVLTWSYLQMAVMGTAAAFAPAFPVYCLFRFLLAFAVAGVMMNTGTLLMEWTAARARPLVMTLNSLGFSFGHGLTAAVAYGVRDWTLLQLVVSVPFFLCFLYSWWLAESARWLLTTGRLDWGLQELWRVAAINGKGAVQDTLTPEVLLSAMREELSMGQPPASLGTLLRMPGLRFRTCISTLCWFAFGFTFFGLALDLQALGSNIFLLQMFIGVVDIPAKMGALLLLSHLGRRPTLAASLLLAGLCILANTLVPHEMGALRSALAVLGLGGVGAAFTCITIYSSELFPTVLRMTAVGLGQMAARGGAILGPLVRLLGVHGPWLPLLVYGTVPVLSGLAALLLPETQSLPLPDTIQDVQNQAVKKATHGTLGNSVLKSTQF
Chain of UniProt P47898 (whole entry, looked up): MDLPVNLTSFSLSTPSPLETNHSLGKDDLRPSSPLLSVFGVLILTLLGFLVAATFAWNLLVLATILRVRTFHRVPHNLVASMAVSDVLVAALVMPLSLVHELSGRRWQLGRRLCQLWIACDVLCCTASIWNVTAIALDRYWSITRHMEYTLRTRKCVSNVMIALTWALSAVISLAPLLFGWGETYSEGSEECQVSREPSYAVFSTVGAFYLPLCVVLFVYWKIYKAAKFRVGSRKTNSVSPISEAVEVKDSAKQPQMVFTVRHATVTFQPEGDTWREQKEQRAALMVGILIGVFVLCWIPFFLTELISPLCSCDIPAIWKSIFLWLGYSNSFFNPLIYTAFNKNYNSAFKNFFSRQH

With `COc1ccc2c(=O)oc3c(OC)cc(CCN(C)C)c4c(=O)oc1c2c34` the inhibition was > 90% (TLR2 (Homo sapiens, UniProt O60603); SEAP reporter gene, inhibitor; HEK-Blue hTLR2; 10 µM, together with: Pam3CSK4).
`COc1ccc2c(c1)C(=O)N(CCCN1CCN(c3ccccc3OC)CC1)C2` gave an inhibition of 99.6% (DRD4; radioligand binding; concentration not given, together with: [3H]N-methylspiperone).
The inhibition of `CN1CCC(CNc2ccc3ncc(-c4cccc(OC(F)(F)F)c4)n3n2)CC1` is reported as > 50% (SCN5A; membrane potential, blocker; 10 µM; relative to: control).
With `CCc1oc2ccccc2c1C(=O)c1cc(Br)c(O)c(Br)c1` the inhibition was 63.1% and 65.9% and 66.1% and 73.7% and 69.1% and 69.6% and 61.9% (SLC22A12 (Homo sapiens, UniProt Q96S37); urate uptake; HEK-293T; 0.5 µM, 10 min, 37 °C, together with: [14C]urate 200 µM).
`O=c1c(O)c(-c2ccc(O)cc2)oc2cc(O)cc(O)c12` gave an inhibition of 87.3 ± 2.31% (AMY2; enzyme activity, inhibitor; 50 µM, together with: CNP-G3 substrate).
With `Cc1ccc(OC[C@H]2CN(CCN3CCc4ccccc43)CCO2)cn1` the inhibition was 43% (DRD4; radioligand binding; concentration not given, together with: [3H]N-methylspiperone).
For `CC[C@@H]1[C@H](F)C(=O)N[C@@H]1COc1nccc2cc(C(N)=O)c(OC)cc12`, the inhibition was 0.659% (CLK3 (Homo sapiens, UniProt P49761); ATP probe binding, KiNativ profiling, refers to: ATP loop probe site; THP-1 cell lysate; 0.2 mM).
The inhibition of `COc1cc(-c2cc(-c3ccc(N4CCNCC4)cc3)cnc2C)cc(OC)c1OC` is reported as 15% (RPS6KB2 (Homo sapiens, UniProt Q9UBS0); kinome profiling; 0.1 µM).
The inhibition of `Clc1cncc(OC[C@H]2CN(CCN3CCc4ccccc43)CCO2)c1` is reported as 60.5% (HTR2B; radioligand binding; concentration not given, together with: [3H]LSD).
`[2H]c1cc(C)c(NC(=O)c2cnc(Nc3cc(N4CCCCC4)nc(C)n3)s2)c(Cl)c1` has an inhibition of > 90% (DDR2 (Homo sapiens, UniProt Q16832); 0.01 µM).
The inhibition of `COc1cc2c(cc1OC)C(=O)C(CC1CCN(Cc3ccccc3)CC1)C2` (stereo not drawn) is reported as 89.2% (DRD4; radioligand binding; concentration not given, together with: [3H]N-methylspiperone).
The inhibition of `Cc1cc2c(cc1N1C(=O)c3cccc4c(CCCO)ccc(c34)C1=O)n(C)c(=O)n2C` (racemic) is reported as 74% (Bromodomain-containing protein 2, BD2 (BRD2, Homo sapiens, UniProt P25440); binding, BROMOscan binding; 1000 nM).
`CC(C)(C)c1ccc(OS(=O)(=O)Oc2cc(F)cc(C(=O)NO)c2)cc1` has an inhibition of 51% (HDAC11; 5 µM).
For `O=C1C[C@@H](c2ccc(O)cc2)Oc2c(Br)c(O)c(Br)c(O)c21`, the inhibition was 49.5 ± 4% (AMY2; enzyme activity, inhibitor; 50 µM, together with: CNP-G3 substrate).
The inhibition of `COc1cc(C(=O)NS(=O)(=O)c2ccccc2C)ccc1Cc1cn(C)c2ccc(NC(=O)OC3CCCC3)cc12` is reported as 28.8% and 19.6% and 4.77% and 12.7% and 29.7% and 0.909% (Volume-regulated anion channel subunit LRRC8C, part LRRC8A IL1 chimera (LRRC8C, Homo sapiens, UniProt Q8TDW0, C43G); ion current, inhibitor, whole-cell patch clamp; HCT LRRC8-/- cells; 1 µM, +100 mV).
`O=C(CN1CCO[C@@H](COc2cccnc2)C1)N1CCc2ccccc21` has an inhibition of 54% (HTR2B; radioligand binding; concentration not given, together with: [3H]LSD).
For `Cc1cc(-c2ccnc3[nH]cc(F)c23)cc(F)c1[C@@]1(O)[C@H](C)CN(C(=O)CN)C[C@@H]1C`, the inhibition was 30.5% (AMPK alpha1 and alpha2; ATP probe binding, KiNativ, refers to: Lys1 site; HEK293T cell lysate; 1 µM).
`CC(C)c1noc2ncc(C(=O)c3ccccc3O)cc12` gave an inhibition of 9.59% and 4.05% and 6.91% and 6.31% and 11% (Voltage-gated potassium channel KCNC3 (Kcnc3, Mus musculus, UniProt Q63959); ion current, inhibitor, whole-cell patch clamp; 10 µM).
`O=C(NO)c1cncc(OS(=O)(=O)Oc2ccc(-n3ccnc3)cc2)c1` gave an inhibition of 8% (HDAC11; 10 µM).
`Cc1ncccc1OC[C@H]1CN(CCN2CCc3ccccc32)CCO1` gave an inhibition of -14.1% (HTR5A (Homo sapiens, UniProt P47898); radioligand binding; concentration not given, together with: [3H]LSD).
`Cc1cc(OS(=O)(=O)Oc2ccccc2)cc(C(=O)NO)c1` gave an inhibition of 39% (HDAC11; 10 µM).
`O=C(NO)c1ccc(CN2CCCCc3ccccc32)c(F)c1` gave an inhibition of 19.7% (ADRA1A (Homo sapiens, UniProt P35348); radioligand binding, radioligand displacement; 10 µM, mean of replicates).
`NC/C(=C\F)COc1cccc(Cn2c(=S)[nH]c(=O)c3[nH]cnc32)c1` gave an inhibition of 37.2% and 20.3% (SCN5A; peak current, inhibitor, patch clamp; human cells; 100 µM, pulse 9).
With `c1cncc(OC[C@@H]2CN(CCN3CCc4ccccc43)CCO2)c1` the inhibition was 102% (DRD4; radioligand binding; concentration not given, together with: [3H]N-methylspiperone).
The inhibition of `CCCCCCCCCCCCCC(=S)NCCCC[C@H](NC(=O)OCc1ccccc1)C(=O)N[C@@H](Cc1c[nH]c2ccccc12)C(=O)NC(C)C` is reported as < 5% (SIRT1 (Homo sapiens, UniProt Q96EB6); enzyme activity, inhibitor; 10 µM).
For `CCS(=O)(=O)c1nc(S(=O)(=O)c2ccccc2Cl)c(N2CCN(C)C(=O)[C@H]2C)s1`, the inhibition was 2.32% (DRD4; 10 µM).
Under inhibition, `O=C(CC1NCCCC1O)Cn1cnc2cc(Br)c(Cl)cc2c1=O` (stereo not drawn) is recorded as “no inhibition” (Bifunctional glutamate/proline--tRNA ligase, prolyl-tRNA synthetase domain (EPRS1, Homo sapiens, UniProt P07814); prolyl-tRNA synthetase activity, inhibitor, [3H]Pro tRNA incorporation; 1 nM).
With `Cc1ccc(C(=O)Nc2ccc3ccccc3c2)o1` the inhibition was 14.8% (SCN5A; ion current, whole-cell patch-clamp; 10 µM, hNaV1.5).
Under “log2 fold change”, `Cn1cc(-c2ccc(-c3cncc(Cl)c3N3CCC4(CCNC4=O)CC3)cc2)cn1` is recorded as -2.89 (COLO 205; gene expression, microarray, refers to: SLC9A1 mRNA; concentration not given, 2 h; relative to: untreated cells).
`O=C(Nc1cccc2c(=O)cc(-c3nnn[nH]3)oc12)c1ccc(OCCCCc2ccccc2)cc1` has an inhibition of 79.8% and 75.7% and 69.8% and 85.7% (Volume-regulated anion channel subunit LRRC8C, part LRRC8A IL1 chimera (LRRC8C, Homo sapiens, UniProt Q8TDW0, Y126F); ion current, inhibitor, whole-cell patch clamp; HCT LRRC8-/- cells; 3 µM, -100 mV).
`NC(=O)c1ncn([C@@H]2O[C@H](CO[P@@](=O)(O)O[P@](=O)(O)OP(=O)(O)O)[C@@H](O)[C@H]2O)n1` has an inhibition of 1.23% (Non-structural polyprotein pORF1, helicase domain (Hepatitis E virus genotype 1, UniProt P33424); ATPase activity, inhibitor, colorimetric; 56 µM, together with: ATP 100 µM).
With `Cc1cc(=O)oc2ccc(-c3cc(-c4ccc(Cl)cc4)nc(N)n3)c(O)c12` the inhibition was 81.6 ± 1.23% (AMY2; enzyme activity, inhibitor; concentration not given).
`COc1cccc(OC[C@@H]2CN(CC(=O)N3CCc4ccccc43)CCO2)c1` gave an inhibition of 80.8% (HTR2B; radioligand binding; concentration not given, together with: [3H]LSD).

Repeated from above:
Under “log2 fold change”, `Cn1cc(-c2ccc(-c3cncc(Cl)c3N3CCC4(CCNC4=O)CC3)cc2)cn1` is recorded as -2.89 (COLO 205; gene expression, microarray, refers to: SLC9A1 mRNA; concentration not given, 2 h; relative to: untreated cells).
`O=C(Nc1cccc2c(=O)cc(-c3nnn[nH]3)oc12)c1ccc(OCCCCc2ccccc2)cc1` has an inhibition of 79.8% and 75.7% and 69.8% and 85.7% (Volume-regulated anion channel subunit LRRC8C, part LRRC8A IL1 chimera (LRRC8C, Homo sapiens, UniProt Q8TDW0, Y126F); ion current, inhibitor, whole-cell patch clamp; HCT LRRC8-/- cells; 3 µM, -100 mV).
